Assay results collected from several papers.
pIC50: −log10 of the molar value.
HLA class I histocompatibility antigen, A alpha chain allele A*02:01: HLA class I histocompatibility antigen, A alpha chain, allele A*02:01 (Homo sapiens, UniProt P04439)
HLA class I histocompatibility antigen, A alpha chain allele A*02:03: HLA class I histocompatibility antigen, A alpha chain, allele A*02:03 (Homo sapiens, UniProt P04439)

CSCC[C@H](NC(=O)[C@@H](N)Cc1c[nH]cn1)C(=O)N[C@@H](Cc1ccc(O)cc1)C(=O)N1CCC[C@H]1C(=O)N[C@@H](CC(N)=O)C(=O)N[C@@H](Cc1ccccc1)C(=O)N[C@H](C(=O)N[C@@H](CCC(N)=O)C(=O)N[C@@H](Cc1ccccc1)C(=O)O)C(C)C  pIC50 (HLA class I histocompatibility antigen, A alpha chain, allele A*24:02 (Homo sapiens, UniProt P04439); binding): 5.31
CC(C)[C@H](NC(=O)[C@H](C)NC(=O)[C@@H](N)Cc1ccccc1)C(=O)N[C@@H](CC(=O)O)C(=O)N[C@@H](C)C(=O)N[C@@H](C)C(=O)N[C@@H](CCCCN)C(=O)N[C@@H](C)C(=O)N[C@@H](Cc1ccc(O)cc1)C(=O)O  pIC50 (HLA class I histocompatibility antigen, A alpha chain allele A*02:01; peptide-MHC binding, radioligand competition binding): < 4.15
CC[C@H](C)[C@H](NC(=O)[C@H](CCCNC(=N)N)NC(=O)[C@H](CC(N)=O)NC(=O)[C@H](Cc1ccccc1)NC(=O)[C@@H](NC(=O)[C@@H](N)Cc1ccc(O)cc1)[C@@H](C)O)C(=O)N[C@@H](Cc1c[nH]cn1)C(=O)N[C@@H](CCC(=O)O)C(=O)N[C@@H](Cc1ccccc1)C(=O)O  pIC50 (HLA class I histocompatibility antigen, A alpha chain, allele A*01:01 (Homo sapiens, UniProt P04439); binding): 5.11
CC(C)[C@H](NC(=O)[C@@H](NC(=O)[C@H](CCC(=O)O)NC(=O)[C@@H](NC(=O)[C@H](Cc1ccccc1)NC(=O)[C@H](C)NC(=O)[C@H](CO)NC(=O)[C@@H](NC(=O)[C@@H](N)CO)[C@@H](C)O)C(C)C)[C@@H](C)O)C(=O)O  pIC50 (HLA class I histocompatibility antigen, A alpha chain allele A*02:01; peptide-MHC binding, radioligand competition binding): 7.59
CC[C@H](C)[C@H](NC(=O)[C@H](CCCNC(=N)N)NC(=O)CNC(=O)[C@@H](NC(=O)[C@@H]1CCCN1C(=O)[C@@H](N)CCSC)[C@@H](C)CC)C(=O)N[C@@H](C)C(=O)N[C@@H](CCC(=O)O)C(=O)N[C@@H](CS)C(=O)N[C@H](C(=O)N[C@@H](CC(C)C)C(=O)O)[C@@H](C)CC  pIC50 (HLA class I histocompatibility antigen, A alpha chain allele A*02:03; binding, competitor, radioligand competition; two days, room temperature, HLA-A*02:03): < 4.40
CC(C)C[C@H](NC(=O)[C@@H](N)CCC(N)=O)C(=O)N[C@H](C(=O)N1CCC[C@H]1C(=O)N[C@H](C(=O)N[C@@H](Cc1c[nH]c2ccccc12)C(=O)N[C@@H](CCCNC(=N)N)C(=O)N[C@H](C(=O)N[C@@H](Cc1ccc(O)cc1)C(=O)O)C(C)C)[C@@H](C)O)[C@@H](C)O  pIC50 (HLA class I histocompatibility antigen, A alpha chain allele A*02:01; peptide-MHC binding, radioligand competition binding): < 4.15
CC(C)[C@H](NC(=O)[C@H](Cc1c[nH]cn1)NC(=O)[C@H](CCC(=O)O)NC(=O)[C@H](Cc1ccccc1)NC(=O)[C@H](CCC(N)=O)NC(=O)[C@H](C)N)C(=O)N1CCC[C@H]1C(=O)N[C@@H](CCC(N)=O)C(=O)N[C@@H](Cc1ccc(O)cc1)C(=O)O  pIC50 (HLA class I histocompatibility antigen, A alpha chain allele A*02:01; binding): 4.27
CC(C)[C@H](NC(=O)CNC(=O)CNC(=O)[C@@H](NC(=O)[C@H](CO)NC(=O)[C@@H]1CCCN1C(=O)[C@H](C)NC(=O)[C@H](CO)NC(=O)[C@H](CCCCN)NC(=O)[C@@H](N)CCCNC(=N)N)[C@@H](C)O)C(=O)O  pIC50 (HLA class I histocompatibility antigen, A alpha chain, allele A*02:02 (Homo sapiens, UniProt P04439); binding): < 4.41
CSCC[C@H](NC(=O)[C@H](CCC(=O)O)NC(=O)[C@H](CCC(=O)O)NC(=O)[C@@H](N)CCCNC(=N)N)C(=O)N[C@@H](CCC(=O)O)C(=O)N[C@H](C(=O)N[C@@H](Cc1c[nH]cn1)C(=O)N[C@@H](CCC(=O)O)C(=O)N[C@@H](CC(C)C)C(=O)O)C(C)C  pIC50 (HLA class I histocompatibility antigen, A alpha chain allele A*02:03; binding, competitor, radioligand competition; two days, room temperature, HLA-A*02:03): < 4.40

Excerpt of the above:
CC[C@H](C)[C@H](NC(=O)[C@H](CCCNC(=N)N)NC(=O)[C@H](CC(N)=O)NC(=O)[C@H](Cc1ccccc1)NC(=O)[C@@H](NC(=O)[C@@H](N)Cc1ccc(O)cc1)[C@@H](C)O)C(=O)N[C@@H](Cc1c[nH]cn1)C(=O)N[C@@H](CCC(=O)O)C(=O)N[C@@H](Cc1ccccc1)C(=O)O  pIC50 (HLA class I histocompatibility antigen, A alpha chain, allele A*01:01 (Homo sapiens, UniProt P04439); binding): 5.11
